Measurements from different studies.
“And” joins repeats or separate records; there may be more than shown. ± gives the spread as reported. Converted amounts (≈) assume the structure as drawn.

C[C@@H]1CN(C)CCN1c1nc(-c2ccc(F)cc2)cs1 — half-life (mouse, brain; intraperitoneal, 10 mg/kg): 2.45 h
O=C(NC1CCN(c2ncnc3[nH]cnc23)CC1)c1cccc(NS(=O)(=O)c2ccc(F)cc2)c1 — Tmax (mouse, plasma; oral, 70 mg/kg): 0.25 h
CCCSc1nc(N[C@@H]2C[C@H]2c2ccc(F)c(F)c2)c2nnn([C@@H]3C[C@H](O)[C@@H](O)[C@H]3O)c2n1 — plasma concentration (female Wistar rat, plasma; oral, 180 mg/kg/day ticagrelor, 5 h, day 1, 2-year carcinogenicity study): 3.9 ± 1.4 µM
[2H]c1c([2H])c(S(=O)(=O)N2CCC([2H])(C(=O)Nc3ccc4cc(C(=O)O)ccc4c3)CC2)c(C([2H])([2H])[2H])c([2H])c1C([2H])([2H])[2H] — half-life (human liver microsomes; 37 °C): > 4 h
C1c2c(-c3nnn[nH]3)n[nH]c2[C@@H]2C[C@H]12 (relative stereo) — locomotion and anxiety (open field test; wild-type mouse; subcutaneous, 10 mg/kg): no effect
N#Cc1ccc(S(=O)(=O)N=C(N)N2CC(c3ccccc3)C(c3ccc(Cl)cc3)=N2)cc1 (single isomer, unassigned) — logD (n-octanol/phosphate buffer; pH 7.4, room temperature): 3.8 and 3.79
O=C(NCCNCCO)c1cc2c([nH]c3ccccc32)c(-c2cc(Cl)c(Cl)c(Cl)c2)n1 — half-life (human liver microsomes): 1.49 h
Cc1nc2c[nH]c(/C=C/C=C/c3ccc(N(C)C)cc3)cn-2c1=O — time to brain entry (Balb/c mouse, brain; intravenous, dose not given): ≤ 5 min
COc1cccc(-c2cc(NC(=O)Nc3ccc(C(F)(F)F)cc3)ccc2OC)c1 — solubility (water): 0.53 ± 0.06 µM (≈ 0.221 µg/mL)
O=C(NC1CCCCC1)Oc1ccc(O)c(-c2ccccc2)c1 — plasma half-life ratio (rat plasma; baseline: cpd over URB597): ~29 fold
COc1cccc2c(N3CCC(CCP(=O)(O)O)CC3)ncnc12 — serum concentration (mouse, serum; subcutaneous, 10 mg/kg, 8 h, single dose): ≤ 0.01 µM
CN(CC(=O)N(Cc1ccc(C2CCCCC2)cc1)c1ccc(C(=O)NO)cc1)S(=O)(=O)c1c(F)c(F)c(F)c(F)c1F — plasma concentration (CD-1 mouse, plasma; intravenous, 5 mg/kg, 30 min): ~700 ng/mL
[11CH3]Nc1ccc(C(=O)C2CCN(C3Cc4ccccc4CC3O)CC2)cc1 (single isomer, unassigned) — radioactivity uptake (Sprague-Dawley rat, muscle; intravenous, dose not given, 5 min): 0.22 %ID/g

A few entries again:
O=C(NC1CCN(c2ncnc3[nH]cnc23)CC1)c1cccc(NS(=O)(=O)c2ccc(F)cc2)c1 — Tmax (mouse, plasma; oral, 70 mg/kg): 0.25 h
